# Results collected from several papers.
# Each line is one published result; not all experiments were run side by side.
# Cell line: CCRF-CEM
Structure (SMILES),assay,conditions,measurement,value
O=C1NC(c2ccccc2)(c2ccccc2)C(=O)N1Cc1cn(-c2c3ccccc3nc3ccccc23)nn1,NCI60 single dose,10 µM,growth,64.6%
Cc1n[nH]c2nc(-c3ccc(Cl)cc3)c3c(NC(=O)c4ccccc4)nnc-3n12,NCI60 SRB,10 µM,growth percent,90.3%
Cc1ccc(-c2cc3ccccc3c(N)n2)cc1,"annexin V-FITC/PI flow cytometry, refers to: annexin V+ PI-","5.0 µM, 72 h",early apoptotic cells,10.2%
O=c1ccn(Cc2cn(-c3cc4ccccc4oc3=O)nn2)c(=O)[nH]1,NCI60 single dose,10 µM,growth,106%
S=C([S][Au-][P+](CCCCCC[P+]([Au-][S]C(=S)n1cccn1)(c1ccccc1)c1ccccc1)(c1ccccc1)c1ccccc1)n1cccn1,"cell growth, NCI-60 screen",leukaemia,log TGI,-5.3 log10 M
CN1CCN(c2ccc3[nH]c(-c4ccc5[nH]c(-c6ccc(C(F)(F)F)cc6)nc5c4)nc3c2)CC1,"cell growth, NCI-60 SRB","10 µM, 48 h",growth percent,21.2%
Cc1cc(-c2ccccc2)n(-c2nc(-c3ccc(Cl)cc3)c3c(NC(=O)c4ccccc4)nnc-3[nH]2)n1,NCI60 SRB,10 µM,growth percent,96.3%
CCCN1CCN(c2ccc3[nH]c(-c4ccc5[nH]c(-c6ccc(C(F)(F)F)cc6)nc5c4)nc3c2)CC1,"cell growth, NCI-60 SRB","10 µM, 48 h",growth percent,-21.1%
Cn1cncc1C1=CN(c2ncnc3[nH]cnc23)CCS1,,leukaemia cell line,TGI,102 µM
CCCCN1CCN(c2ccc3nc(-c4ccc5nc(-c6cc(OC)ccc6OC)[nH]c5c4)[nH]c3c2)CC1,"cell growth, NCI-60 SRB","10 µM, 48 h",growth percent,96.4%
Nc1nc(S)nc(O)c1N=Cc1cn(-c2ccccc2)nc1-c1ccc(Cl)cc1,"cytotoxicity, differential nuclear staining",,CC20,6.06 µM
Cc1cc(=O)[nH]n1-c1nc(-c2ccc(Cl)cc2)c2c(NC(=O)c3ccccc3)nnc-2[nH]1,NCI60 SRB,10 µM,growth percent,87.2%
CCCN1CCN(c2ccc3[nH]c(-c4ccc5[nH]c(-c6cc(OC)c(OC)c(OC)c6)nc5c4)nc3c2)CC1,"cell growth, NCI-60 SRB","10 µM, 48 h",growth percent,41.2%
O=C(Nc1nnc2n3c(=S)[nH][nH]c3nc(-c3ccc(Cl)cc3)c1-2)c1ccccc1,NCI60 SRB,10 µM,growth percent,91.3%
CCCCN1CCN(c2ccc3[nH]c(-c4ccc5[nH]c(-c6ccc(OCC)c(OCC)c6)nc5c4)nc3c2)CC1,"cell growth, NCI-60 SRB","10 µM, 48 h",growth percent,-0.37%
O=C(Nc1nnc2[nH]c(=S)[nH]c(-c3ccc(Cl)cc3)c1-2)c1ccccc1,NCI60 SRB,10 µM,growth percent,94.8%
COc1ccc(OC)c(-c2nc3ccc(-c4nc5ccc(N6CCN(C)CC6)cc5[nH]4)cc3[nH]2)c1,"cell growth, NCI-60 SRB","10 µM, 48 h",growth percent,86.3%
O=C(Nc1nnc2n3c(nc(-c4ccc(Cl)cc4)c1-2)SCC3=O)c1ccccc1,NCI60 SRB,10 µM,growth percent,98.7%
Cc1cc(=O)[nH]c(=O)n1Cc1cn(-c2c3ccccc3nc3ccccc23)nn1,NCI60 single dose,10 µM,growth,64.7%
